Experimental data gathered from unrelated publications.
A part holds a random share of what one study measured.

Study 1 — technique: protein-binding microarray; form: double-stranded DNA, one strand shown; matrix: in vitro; tested at: 2200 nM top; notes: 60-bp whole probe; together with: salmon DNA 0.4 mg/ml; reference: random background probes; reading: higher = stronger binding; constant ends, left off below: GCCTAGCAC … GTCTTGATTCGCTTGACGCTGCTG
Target: Interferon regulatory factor 7, full length, phosphomimetic (IRF7, Homo sapiens, UniProt Q92985, residues 1-503, S471D/S472D/S475D/S476D/S477D/S483D/S484D/S487D)
Target sequence (chain): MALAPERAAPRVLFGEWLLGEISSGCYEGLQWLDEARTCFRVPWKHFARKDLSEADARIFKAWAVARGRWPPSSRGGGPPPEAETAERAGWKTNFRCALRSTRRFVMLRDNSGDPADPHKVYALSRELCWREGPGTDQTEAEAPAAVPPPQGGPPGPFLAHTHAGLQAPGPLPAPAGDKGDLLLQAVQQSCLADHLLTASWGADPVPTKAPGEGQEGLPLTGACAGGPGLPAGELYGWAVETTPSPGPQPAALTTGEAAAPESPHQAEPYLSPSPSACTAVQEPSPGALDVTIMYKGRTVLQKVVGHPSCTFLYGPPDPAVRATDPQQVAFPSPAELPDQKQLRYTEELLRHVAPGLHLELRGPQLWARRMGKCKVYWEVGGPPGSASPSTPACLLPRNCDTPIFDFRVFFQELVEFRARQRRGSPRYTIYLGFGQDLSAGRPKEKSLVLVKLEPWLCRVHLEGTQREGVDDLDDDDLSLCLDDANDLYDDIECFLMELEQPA
| Strand | fitted relative affinity [z-score] |
| --- | --- |
| TCATGAATGCCCTTCCATACTGTGCTA | 0.939 |
| TCATTTTAGCTTCTCAAACTGTGCTAG | 2.57 |
| GACGAACTGGGGACTGGAGTCGTGCTA | 0.0329 |
| TTAGGACTGCGTCTCGGTTAGTGCTAG | -0.0353 |
| GACGATCTCAGTATCAAGACGTGCTAG | -0.128 |
| TTAGGACTGGGGTAACGGTTAGTGCTA | -0.847 |
| GACGAACTGAGACTGGGGACGTGCTAG | -0.315 |
| GACGGTCTCCTTCTCCTTACGTGCTAG | 1.2 |
| TTACGACTGCTTCTCCTTTAGTGCTAG | 1.67 |

Study 2 — technique: protein binding microarray; form: double-stranded DNA, one strand shown; matrix: in vitro; tested at: not given; reference: not given; reading: higher = stronger binding
Target: Histone acetyltransferase KAT6A, winged helix 1, GST fusion (KAT6A, Homo sapiens, UniProt Q92794, residues 1-85)
Notes: 8-mer, flanks averaged, mean of 2 arrays, mostly near background
Residues (chain): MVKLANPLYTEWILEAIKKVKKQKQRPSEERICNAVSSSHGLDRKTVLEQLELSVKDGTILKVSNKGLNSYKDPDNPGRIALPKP
| Strand | E-score |
| --- | --- |
| CATTCGAG | -0.0981 |
| TGCAAACA | -0.115 |
| TCTTCGCA | -0.105 |
| ATTAGAGG | -0.197 |
| GAGTCGAA | -0.203 |
| AGTCCTTG | -0.219 |
| ACATGCGT | 0.00391 |
| CGCTTCCC | 0.391 |
| AATGAAGA | -0.0892 |
| ACCGAAAA | -0.25 |
| CCAGGAAG | -0.0555 |

Study 3 — technique: aptamer microarray, sandwich; form: DNA with 2'F-ANA; matrix: in vitro; tested at: 200 nM; together with: Cy3 exosite-II aptamer, 400 nM; reading: higher = stronger binding; strand: GGTTGGTGTGGTTGG
Target: Prothrombin, mature alpha-thrombin (F2, Homo sapiens, UniProt P00734)
Notes: whole 15-mer aptamer, many near background
| Modification | mean fluorescence intensity [a.u.] |
| --- | --- |
| 2'F-ANA at 3 4 5 6 11 12 14 15 | 57.6 |
| 2'F-ANA at 1 3 7 12 13 14 15 | 129 |
| 2'F-ANA at 1 2 3 6 7 12 13 14 | 74 |
| 2'F-ANA at 3 5 6 7 12 13 14 | 54.3 |
| 2'F-ANA at 3 5 6 7 8 9 13 15 | 187 |
| 2'F-ANA at 1 4 5 6 7 8 10 11 12 13 15 | 52.4 |
| 2'F-ANA at 3 4 11 12 | 903 |
| 2'F-ANA at 1 2 3 4 5 6 8 11 13 | 48.6 |
| 2'F-ANA at 3 6 7 8 9 10 13 14 | 395 |
| 2'F-ANA at 5 7 8 10 13 14 15 | 49.1 |

Further values, each from its own experiment
| Molecule | target | assay | system | conditions | how to read | measurement | value |
| --- | --- | --- | --- | --- | --- | --- | --- |
| PhoQ, residues 284 288 289 292 302 303 SMMNNA | PhoP, residues 12 14 15 18 19 LYFRQ (Escherichia coli, UniProt P23836) | Sort-seq, item: YFP reporter | E. coli | PhoQ-PhoP variant library, together with: 10 µM Mg2+ | reference: high Mg2+ state, higher = stronger signaling | fold induction | 9.12 |

Some of these lines once more (study 3):
| Modification | mean fluorescence intensity [a.u.] |
| --- | --- |
| 2'F-ANA at 3 5 6 7 12 13 14 | 54.3 |
| 2'F-ANA at 3 5 6 7 8 9 13 15 | 187 |
